Measured values from different studies.
Protocols differ between the studies behind these lines.

C[C@@H]1OC(=O)NN=C1c1ccc(-c2ccc(F)cc2)c(C(F)(F)F)c1 — patients with adverse event (phase I trial, measured: Ascites worst grade 2; human patients; 5 mg once daily): 0%
O=C1Nc2cc3[nH]nc(-c4ccncc4)c3cc2CN1Cc1ccccc1 — patients with vomiting (CTCAE v4.03; human, relapsed or refractory advanced solid tumours; intravenous, 0.45 mg/kg, pooled schedules): 0%
Cn1nc(NS(C)(=O)=O)c2c(Cl)ccc(-n3c([C@H](Cc4cc(F)cc(F)c4)NC(=O)Cn4nc(C(F)F)c5c4C(F)(F)[C@@H]4C[C@H]54)nc4nc(OCCC(F)(F)F)ccc4c3=O)c21 — patients with laboratory abnormality (measured: LDL cholesterol grade 3 increase; human; 400 mg once daily, powder in bottle): 0%
CN(C)C(=O)c1cc2cnc(Nc3ccc(N4CCNCC4)cn3)nc2n1C1CCCC1 — patients with adverse event (measured: Renal toxicity, AESI; human, HR+/HER2− advanced breast cancer; oral, dose not given, grade 4, CTCAE v4.03): 0%
N[C@@H]1c2ccccc2OC12CCN(c1cnc3c(N4CCCc5ncccc54)n[nH]c3n1)CC2 — patients with treatment-emergent adverse event (measured: Thrombocytopenia; human advanced or metastatic solid tumours; oral, 60 mg once daily, phase Ia pooled cohort): 20%
C=CCNc1c(O)cc2c(O)c1C[C@@H](C)C[C@H](OC)[C@H](O)[C@@H](C)/C=C(\C)[C@H](OC(N)=O)[C@@H](OC)/C=C\C=C(/C)C(=O)N2 — patients with sinus bradycardia (human unresectable metastatic GIST or sarcoma; intravenous, dose not given, treatment-emergent, all doses): 20%
COc1ccc(-c2c(-c3ccc(C#N)c(F)c3)nc(N3CCC(N)CC3)n(C)c2=O)cc1F — patients with serious TEAE (measured: pleural effusion; human patients; oral, dose not given, dose escalation): 2%
C[C@]1(O)C[C@@](N)(c2ccc(-c3nc4n(c3-c3ccccc3)COc3ccncc3-4)cc2)C1 — patients with grade ≥3 TEAE (human, advanced or metastatic solid tumours; 20 mg once daily, phase I dose escalation): 100%
CN[C@@H](C)C(=O)N[C@H]1CN(S(=O)(=O)c2cccc(S(=O)(=O)N3CC[C@H]4CC[C@@H](C(=O)NC(c5ccccc5)c5ccccc5)N4C(=O)[C@@H](NC(=O)[C@H](C)NC)C3)c2)CC[C@H]2CC[C@@H](C(=O)NC(c3ccccc3)c3ccccc3)N2C1=O — patients with treatment-related asthenia (human, advanced solid tumours; 30 mg): 0%
Cn1cncc1-c1c(F)cncc1NC(=O)c1c(N)nn2cc(F)cnc12 — patients with anaemia DLT (human patients; oral, 220 mg once daily, 21 days, 2 weeks on 1 week off): 33%
CNC(=O)c1cc(Oc2ccc(NC(=O)Nc3cc(C(C)(C)C)nn3-c3ccc4ncccc4c3)c(F)c2)ccn1 — patients with any related serious AE (human, trial; oral, 150 mg twice daily, starting dose): 35%
Cc1cn([C@H]2O[C@@H](CO[P@@](=O)(N[C@@H](C)C(=O)OC(C)C)Oc3ccccc3)[C@H](O)[C@H]2F)c(=O)[nH]c1=O — patients with ALT/AST elevation (measured: grade 3; human; 10 mg): 0%
C=CC(=O)Nc1cc(Nc2nccc(Nc3cc(Cl)c(F)cc3C(C)(C)O)n2)c(OC)cc1N1CC[C@@H](N(C)C)C1 — patients with amylase increased (human patients; oral, 400 mg, treatment-emergent adverse events): 10%
COc1ncnn2ccc(-c3cnc4nc(C)n(Cc5nnc([C@@H](C)F)o5)c4c3)c12 — patients with taste disorder (human; oral, dose not given, grade 5): 0%

Some of these lines once more:
C[C@]1(O)C[C@@](N)(c2ccc(-c3nc4n(c3-c3ccccc3)COc3ccncc3-4)cc2)C1 — patients with grade ≥3 TEAE (human, advanced or metastatic solid tumours; 20 mg once daily, phase I dose escalation): 100%
C[C@@H]1OC(=O)NN=C1c1ccc(-c2ccc(F)cc2)c(C(F)(F)F)c1 — patients with adverse event (phase I trial, measured: Ascites worst grade 2; human patients; 5 mg once daily): 0%
